Results gathered from unrelated publications.
Each line is one published result; not all experiments were run side by side. Values joined by “and” are separate records of one study, mostly repeats; a detail may differ. Converted amounts (≈) assume the structure as drawn.
Sequence of UniProt P51812 (whole entry, looked up): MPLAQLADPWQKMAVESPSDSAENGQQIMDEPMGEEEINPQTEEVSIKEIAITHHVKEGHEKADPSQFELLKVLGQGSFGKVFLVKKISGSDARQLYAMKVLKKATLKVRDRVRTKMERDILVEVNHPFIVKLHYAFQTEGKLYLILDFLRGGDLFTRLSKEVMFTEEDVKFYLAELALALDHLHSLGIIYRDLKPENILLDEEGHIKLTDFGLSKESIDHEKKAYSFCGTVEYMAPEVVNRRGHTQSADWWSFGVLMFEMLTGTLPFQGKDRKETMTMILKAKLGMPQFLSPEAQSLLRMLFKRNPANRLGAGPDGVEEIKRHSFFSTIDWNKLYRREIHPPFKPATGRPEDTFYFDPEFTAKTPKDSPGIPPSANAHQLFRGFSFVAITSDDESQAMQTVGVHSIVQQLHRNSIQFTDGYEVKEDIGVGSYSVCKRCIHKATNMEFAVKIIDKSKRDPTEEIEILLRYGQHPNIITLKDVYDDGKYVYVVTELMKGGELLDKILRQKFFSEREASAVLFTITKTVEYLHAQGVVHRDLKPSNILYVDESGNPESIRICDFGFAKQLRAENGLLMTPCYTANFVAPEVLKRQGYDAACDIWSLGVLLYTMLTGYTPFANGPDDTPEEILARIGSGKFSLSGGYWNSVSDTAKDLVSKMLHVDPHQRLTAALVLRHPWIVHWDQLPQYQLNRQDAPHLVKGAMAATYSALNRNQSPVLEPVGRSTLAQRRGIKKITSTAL
Sequence of UniProt P36897 (whole entry, looked up): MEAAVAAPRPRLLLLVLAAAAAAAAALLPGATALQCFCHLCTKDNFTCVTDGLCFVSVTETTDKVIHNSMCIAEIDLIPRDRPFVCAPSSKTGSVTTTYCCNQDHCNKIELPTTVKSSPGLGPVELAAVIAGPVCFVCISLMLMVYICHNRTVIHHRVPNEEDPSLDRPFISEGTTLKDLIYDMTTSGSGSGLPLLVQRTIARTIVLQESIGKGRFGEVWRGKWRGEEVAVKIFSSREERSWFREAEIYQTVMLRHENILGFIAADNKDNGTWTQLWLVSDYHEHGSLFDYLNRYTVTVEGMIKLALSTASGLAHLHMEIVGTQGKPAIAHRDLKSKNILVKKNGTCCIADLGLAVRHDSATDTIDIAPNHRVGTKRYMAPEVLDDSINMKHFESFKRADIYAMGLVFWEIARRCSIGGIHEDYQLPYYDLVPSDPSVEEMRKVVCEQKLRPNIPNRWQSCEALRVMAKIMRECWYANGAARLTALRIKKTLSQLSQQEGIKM
Sequence of UniProt P57059 (whole entry, looked up): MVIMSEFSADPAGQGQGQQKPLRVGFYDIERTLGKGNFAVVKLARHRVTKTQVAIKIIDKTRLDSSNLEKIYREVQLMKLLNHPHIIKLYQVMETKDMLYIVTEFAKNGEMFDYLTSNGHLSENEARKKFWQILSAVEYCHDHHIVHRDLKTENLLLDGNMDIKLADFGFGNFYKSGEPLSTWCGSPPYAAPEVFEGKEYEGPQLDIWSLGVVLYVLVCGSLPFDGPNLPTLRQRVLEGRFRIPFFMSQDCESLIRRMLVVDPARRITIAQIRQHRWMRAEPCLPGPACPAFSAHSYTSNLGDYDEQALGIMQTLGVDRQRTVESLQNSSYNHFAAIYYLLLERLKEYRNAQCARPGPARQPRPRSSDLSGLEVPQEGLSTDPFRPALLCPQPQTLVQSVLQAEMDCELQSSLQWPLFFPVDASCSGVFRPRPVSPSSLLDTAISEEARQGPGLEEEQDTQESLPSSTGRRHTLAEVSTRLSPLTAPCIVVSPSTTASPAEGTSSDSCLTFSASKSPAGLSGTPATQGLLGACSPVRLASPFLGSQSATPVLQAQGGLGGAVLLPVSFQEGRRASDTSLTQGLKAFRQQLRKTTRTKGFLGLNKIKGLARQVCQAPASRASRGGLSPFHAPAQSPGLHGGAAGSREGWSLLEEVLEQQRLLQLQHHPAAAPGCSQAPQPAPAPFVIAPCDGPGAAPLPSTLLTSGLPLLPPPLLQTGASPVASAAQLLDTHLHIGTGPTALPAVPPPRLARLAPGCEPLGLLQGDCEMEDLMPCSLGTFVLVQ
Sequence of UniProt Q16659 (whole entry, looked up): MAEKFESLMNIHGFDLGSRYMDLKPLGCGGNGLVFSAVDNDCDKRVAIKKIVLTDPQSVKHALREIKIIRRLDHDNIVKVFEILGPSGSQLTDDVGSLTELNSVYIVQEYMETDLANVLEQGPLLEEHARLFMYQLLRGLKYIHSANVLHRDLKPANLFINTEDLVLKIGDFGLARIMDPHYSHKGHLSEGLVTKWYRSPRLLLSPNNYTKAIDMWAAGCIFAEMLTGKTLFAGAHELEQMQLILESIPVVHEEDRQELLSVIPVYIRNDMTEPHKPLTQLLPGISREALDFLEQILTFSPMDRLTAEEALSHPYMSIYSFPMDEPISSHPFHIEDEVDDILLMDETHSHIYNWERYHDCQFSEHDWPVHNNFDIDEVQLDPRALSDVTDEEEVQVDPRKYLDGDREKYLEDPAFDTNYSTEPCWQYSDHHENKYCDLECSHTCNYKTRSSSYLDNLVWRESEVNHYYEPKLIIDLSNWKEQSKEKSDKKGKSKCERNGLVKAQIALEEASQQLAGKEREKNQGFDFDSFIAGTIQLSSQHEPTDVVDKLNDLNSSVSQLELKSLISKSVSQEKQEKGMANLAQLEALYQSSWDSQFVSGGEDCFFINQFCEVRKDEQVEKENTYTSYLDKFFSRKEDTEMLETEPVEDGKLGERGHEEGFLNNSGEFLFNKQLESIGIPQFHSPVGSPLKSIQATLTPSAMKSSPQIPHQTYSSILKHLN

Compound	tested on	assay	system	conditions	quantity	value
COc1cc(-c2cncc3c2CN(C)Cc2cc(N4CCNCC4)ccc2-3)cc(OC)c1OC	RPS6KA3 (Homo sapiens, UniProt P51812)	enzyme activity, inhibitor	–	1 µM	remaining activity	101%
N#CC(C(=O)Nc1cccc(C(F)(F)F)c1)=C1Sc2nc3ccc(S(=O)(=O)N4CCCC4)cc3nc2S1	WI-38	cell growth or viability, MTT	–	1.56 µM, 24 h	viability	100%
C=CC(=O)N1CCC(COCC(=O)N2CCN(c3nc(-c4cnc(N)nc4C(F)F)nc(N4CCOC[C@@H]4C)n3)CC2)CC1	Ribosomal protein S6 kinase alpha-3, C-terminal kinase domain (RPS6KA3, Homo sapiens, UniProt P51812)	binding, competition with immobilised ligand	–	1 µM	remaining binding	82%
CCCCC(=O)Nc1ccc(-c2ccc3ncn(CCC)c(=O)c3c2)cn1	MAPK6 (Homo sapiens, UniProt Q16659)	binding, competition with immobilised ligand	–	0.5 µM	remaining binding	100%
CCOC(=O)C(C(C)=O)=C1Sc2nc3ccc(S(=O)(=O)N4CCCC4)cc3nc2S1	WI-38	cell growth or viability, MTT	–	6.25 µM, 24 h	viability	94.5%
Cn1cnc2c1c(=O)n(CC(=O)Nc1c(Cl)cccc1Cl)c(=O)n2C	NCI-H1975	cell growth or viability, MTT	–	1.6 µg	viability	69.5%
O=c1nc(N2CCN(CC3CCCCC3)CC2)sc2c([N+](=O)[O-])cc(C(F)(F)F)cc12	–	–	CD-1 mouse, plasma	oral, 100 mg/kg, 30 min	concentration	2900 ng/mL
Cc1cn(C2CC2)c(=O)c2nn(C)c(Cc3ccc(C(F)(F)F)nc3)c12	–	nephelometry	aqueous buffer	30 min, pH 6.5	kinetic solubility	130 to 260 µM (≈ 47.1 to 94.2 µg/mL)
COc1cccc(NC(=O)Nc2ccc(Oc3nc4ccccc4n4cnnc34)cc2)c1	WI-38	cell growth or viability, MTT	–	50 µM, 24 h	viability	62.6%
COc1cccc2c1C(=O)c1c(O)c3c(c(O)c1C2=O)C[C@@](O)(C(=O)CO)C[C@@H]3O[C@H]1C[C@H](N)[C@H](O)[C@H](C)O1	K562	cell growth or viability, MTT	–	12.5 µg/mL	viability	62.7%
c1cnc2c(c1)ccc1cccnc12	HepG2	cell growth or viability, MTT	–	12.5 µg/mL, 24 h	viability	> 80%
Cc1cc([C@@H](C)Nc2ccccc2C(=O)O)c2nc(N3CCC(F)(F)CC3)c(C#N)c(=O)n2c1	TGFBR1 (Homo sapiens, UniProt P36897)	binding, competition with immobilised ligand	–	10 µM	remaining binding	92%
O=c1[nH]cc(F)c(=O)[nH]1	PC-9	cell growth or viability, CCK-8	–	20 µM	viability	49.7%
CNC(=O)c1cc(Oc2ccc(NC(=O)Nc3ccc(Cl)c(C(F)(F)F)c3)cc2)ccn1	WI-38	cell growth or viability, MTT	–	100 µM, 24 h	viability	13.1%
CC(=O)c1nn(-c2ccc(C)cc2)/c(=N/N=C(\C)c2ccc(NC(=O)c3ccccc3)cc2)s1	WI-38	cell growth or viability, MTS	–	0.312 µM, 24 h	viability	11.8%
CNc1ncc2c(/C=C/C(=O)N3CCC(OC)CC3)nn(Cc3cccc(C(F)(F)F)c3)c2n1	SIK1 (Homo sapiens, UniProt P57059)	enzyme activity, inhibitor, radiometric	–	1 µM	remaining activity	93%
COc1cc(N2CCC(N3CCN(C)CC3)CC2)ccc1Nc1ncc(Cl)c(Nc2ccccc2P(C)(C)=O)n1	Ba/F3 EML4-ALK	cell growth or viability, CCK-8	–	1 µM, 3 h	viability	54% and 53% and 56%
O=C1CCCCC1=C1Sc2nc3ccc(S(=O)(=O)N4CCCC4)cc3nc2S1	WI-38	cell growth or viability, MTT	–	6.25 µM, 24 h	viability	99.7%
N[C@H]1C(O)O[C@H](CO)[C@@H](O)[C@@H]1O (stereo partly drawn)	Caco-2	cell growth or viability, CCK-8	–	1 mM	viability	100%
COc1cccc2c1C(=O)c1c(O)c3c(c(O)c1C2=O)C[C@@](O)(C(=O)CO)C[C@@H]3O[C@H]1C[C@H](N)[C@H](O)[C@H](C)O1	WI-38	cell growth or viability, MTT	–	1.56 µM, 24 h	viability	87.4%
Nc1ccn([C@@H]2O[C@H](CO)[C@@H](O)C2(F)F)c(=O)n1	MDA-MB-231	cell growth or viability, MTT	–	1.25 µg/mL, 48 h	viability	68.1%

Some of these lines once more:
Compound	tested on	assay	system	conditions	quantity	value
c1cnc2c(c1)ccc1cccnc12	HepG2	cell growth or viability, MTT	–	12.5 µg/mL, 24 h	viability	> 80%
O=C1CCCCC1=C1Sc2nc3ccc(S(=O)(=O)N4CCCC4)cc3nc2S1	WI-38	cell growth or viability, MTT	–	6.25 µM, 24 h	viability	99.7%
